Measurements collected from several papers.
Parts stem from different laboratories: compare values within a part only. “And” joins repeats or separate records; there may be more than shown.
UniProt P42336, sequence (whole entry, unmodified, looked up): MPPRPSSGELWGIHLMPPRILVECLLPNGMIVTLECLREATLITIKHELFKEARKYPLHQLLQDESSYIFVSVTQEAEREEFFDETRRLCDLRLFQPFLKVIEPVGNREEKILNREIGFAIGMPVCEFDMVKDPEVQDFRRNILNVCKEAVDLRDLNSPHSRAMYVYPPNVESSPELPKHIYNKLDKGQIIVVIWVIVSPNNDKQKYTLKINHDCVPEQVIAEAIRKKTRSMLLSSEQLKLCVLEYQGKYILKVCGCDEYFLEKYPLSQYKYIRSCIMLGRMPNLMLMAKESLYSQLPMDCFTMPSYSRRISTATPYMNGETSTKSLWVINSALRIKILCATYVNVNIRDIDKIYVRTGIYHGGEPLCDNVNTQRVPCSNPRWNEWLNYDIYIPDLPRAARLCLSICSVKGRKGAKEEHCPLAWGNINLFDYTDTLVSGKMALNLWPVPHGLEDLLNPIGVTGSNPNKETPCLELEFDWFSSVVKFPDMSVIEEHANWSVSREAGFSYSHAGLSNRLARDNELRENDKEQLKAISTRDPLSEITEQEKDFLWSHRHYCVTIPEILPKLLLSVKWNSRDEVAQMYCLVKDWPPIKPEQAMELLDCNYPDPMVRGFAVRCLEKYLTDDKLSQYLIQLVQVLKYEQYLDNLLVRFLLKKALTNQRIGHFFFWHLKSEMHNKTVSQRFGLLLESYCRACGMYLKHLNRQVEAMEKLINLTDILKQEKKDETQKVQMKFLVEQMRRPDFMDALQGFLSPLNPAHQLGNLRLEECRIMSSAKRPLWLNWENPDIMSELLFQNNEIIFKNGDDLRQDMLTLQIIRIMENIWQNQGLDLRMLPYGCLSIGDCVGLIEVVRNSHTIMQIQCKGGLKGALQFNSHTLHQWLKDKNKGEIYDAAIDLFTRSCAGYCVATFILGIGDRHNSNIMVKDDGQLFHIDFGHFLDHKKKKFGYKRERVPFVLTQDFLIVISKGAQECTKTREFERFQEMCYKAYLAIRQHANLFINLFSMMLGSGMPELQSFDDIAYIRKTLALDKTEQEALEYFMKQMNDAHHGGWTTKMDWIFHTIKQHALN
UniProt Q12852, sequence (whole entry, looked up): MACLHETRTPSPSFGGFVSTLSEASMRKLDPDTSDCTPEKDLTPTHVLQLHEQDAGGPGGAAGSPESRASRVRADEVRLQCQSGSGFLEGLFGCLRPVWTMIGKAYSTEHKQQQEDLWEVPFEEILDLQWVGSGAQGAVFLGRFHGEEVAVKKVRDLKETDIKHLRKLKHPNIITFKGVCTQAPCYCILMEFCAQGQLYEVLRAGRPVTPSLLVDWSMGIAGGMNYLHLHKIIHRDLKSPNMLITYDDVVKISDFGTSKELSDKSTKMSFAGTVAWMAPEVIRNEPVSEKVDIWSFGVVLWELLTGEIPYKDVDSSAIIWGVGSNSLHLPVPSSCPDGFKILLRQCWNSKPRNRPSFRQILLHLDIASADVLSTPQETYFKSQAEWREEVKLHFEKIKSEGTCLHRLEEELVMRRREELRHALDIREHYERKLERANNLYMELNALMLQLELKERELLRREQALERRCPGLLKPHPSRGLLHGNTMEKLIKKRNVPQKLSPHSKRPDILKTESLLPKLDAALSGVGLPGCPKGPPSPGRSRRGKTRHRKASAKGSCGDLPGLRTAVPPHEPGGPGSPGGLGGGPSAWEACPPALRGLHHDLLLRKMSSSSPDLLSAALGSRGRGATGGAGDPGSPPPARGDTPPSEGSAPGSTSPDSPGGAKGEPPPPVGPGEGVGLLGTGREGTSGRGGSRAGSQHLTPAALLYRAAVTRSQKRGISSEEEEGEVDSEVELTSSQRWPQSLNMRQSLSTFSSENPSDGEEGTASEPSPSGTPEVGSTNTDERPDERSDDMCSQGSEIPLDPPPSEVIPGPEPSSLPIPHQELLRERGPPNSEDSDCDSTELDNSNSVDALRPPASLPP

Block 1
Cell line: mouse MPNST tumor cells
Method: high-content nuclear imaging
Refers to: cell number
Tested at: 10 µM
Time: 12 h
Notes: mean of 2 replicates
Baseline: plate mean
Direction: higher = more cells
Structure (SMILES) | nuclei count [z-score]
CC(=O)OC[C@H]1O[C@@H]([S-])[C@H](OC(C)=O)[C@@H](OC(C)=O)[C@@H]1OC(C)=O.CCP(CC)CC.[Au+] | -5.42
CN(C)[C@@H]1C(=O)C(C(N)=O)=C(O)[C@@]2(O)C(=O)C3=C(O)c4c(O)ccc(Cl)c4[C@@H](O)[C@H]3C[C@@H]12 | -0.509
O=C(Nc1cc(C(F)(F)F)ccc1N1CCCCC1)c1ccncc1 | -0.675
CC1(C)c2cc(Cl)ccc2N(CCc2nn[nH]n2)c2ccc(Cl)cc21 | 1.47
C[C@@H]1CCC[C@H](C)N1NC(=O)c1ccc(Cl)c(S(N)(=O)=O)c1 | 0.225
CCCC1C(=O)N2C(N(C)C)=Nc3ccc(C)cc3N2C1=O (stereo not shown) | 1.15
N=C(N=C(N)N)N1CCOCC1 | 0.439
O=C(Nc1cc(-c2ccccc2)nn1-c1ccccc1F)c1ccc([N+](=O)[O-])cc1 | 0.855

Block 2
Target: Calcium/calmodulin-dependent protein kinase type II subunit alpha (CAMK2A, Homo sapiens, UniProt Q9UQM7)
UniProt Q9UQM7, sequence (whole entry, looked up): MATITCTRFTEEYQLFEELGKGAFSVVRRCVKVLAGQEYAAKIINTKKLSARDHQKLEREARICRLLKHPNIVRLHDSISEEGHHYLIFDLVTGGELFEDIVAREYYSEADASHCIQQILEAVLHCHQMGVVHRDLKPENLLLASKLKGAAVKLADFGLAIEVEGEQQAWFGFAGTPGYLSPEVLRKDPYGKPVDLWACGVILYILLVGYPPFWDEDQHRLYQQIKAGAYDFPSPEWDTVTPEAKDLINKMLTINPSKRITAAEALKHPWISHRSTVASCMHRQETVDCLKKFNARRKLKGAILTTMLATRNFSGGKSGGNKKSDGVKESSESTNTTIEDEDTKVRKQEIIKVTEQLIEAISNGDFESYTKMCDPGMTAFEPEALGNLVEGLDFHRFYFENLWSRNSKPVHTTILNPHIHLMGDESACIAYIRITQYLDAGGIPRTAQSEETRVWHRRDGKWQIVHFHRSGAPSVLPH
Read-out: enzyme activity
Mode: inhibitor
Tested at: 10 µM
Structure (SMILES) | inhibition [%]
CCCCCCCC/C=C\CCCCCCCC(=O)NCC(=O)O | -48
CC(=O)O[C@H](C[C@@H](C)[C@H]1C(=O)[C@H](O)[C@@]2(C)[C@@H]3CC[C@H]4C(C)(C)[C@@H](O[C@@H]5OC[C@H](O)[C@H](O)[C@H]5O)CC[C@@]45C[C@@]35CC[C@]12C)[C@@H]1OC1(C)C | -32
COc1c(O)cc2oc3cc(O)c(CC=C(C)C)c(O)c3c(=O)c2c1CC=C(C)C | 45
Oc1cc(O)c2c(c1)O[C@@]1(c3ccc(O)c(O)c3)Oc3cc(O)c4c(c3[C@@H]2[C@H]1O)O[C@H](c1ccc(O)c(O)c1)[C@H](O)[C@H]4c1c(O)cc(O)c2c1O[C@H](c1ccc(O)c(O)c1)[C@H](O)C2 | -24
O=c1cc(-c2ccccc2)c2c(O)cc(O)cc2o1 | 2
O=C(O)Cc1cc(O)ccc1O | -22
NCc1ccc(O)cc1 | -17

Block 3
Structure (SMILES): CC(=O)N1CCC(c2ccc(C(=O)NC(=N)N)cc2C(F)(F)F)CC1
Tested at: 1 µM
target | read-out | method | remaining binding [%]
ALK (Homo sapiens, UniProt Q9UM73, L1196M) | cell-free assay | competition with immobilised ligand | 96
eIF-2-alpha kinase GCN2, C-terminal kinase domain (EIF2AK4, Homo sapiens, UniProt Q9P2K8, S808G) | cell-free assay | competition with immobilised ligand | 73
KIT (Homo sapiens, UniProt P10721, V559D) | cell-free assay | competition with immobilised ligand | 100
STK32B (Homo sapiens, UniProt Q9NY57) | cell-free assay | competition with immobilised ligand | 89
WNK1 (Homo sapiens, UniProt Q9H4A3) | cell-free assay | competition with immobilised ligand | 100
GRK1 (Homo sapiens, UniProt Q15835) | cell-free assay | competition with immobilised ligand | 98
MAP3K12 (Homo sapiens, UniProt Q12852) | cell-free assay | competition with immobilised ligand | 100
Tyrosine-protein kinase ABL1, non-phosphorylated (ABL1, Homo sapiens, UniProt P00519, F317I) | binding | competition with immobilised ligand | 92
COQ8A (Homo sapiens, UniProt Q8NI60) | cell-free assay | competition with immobilised ligand | 96
PIP4K2C (Homo sapiens, UniProt Q8TBX8) | cell-free assay | competition with immobilised ligand | 100
CAMK2G (Homo sapiens, UniProt Q13555) | cell-free assay | competition with immobilised ligand | 100
CHEK2 (Homo sapiens, UniProt O96017) | cell-free assay | competition with immobilised ligand | 100
TLK2 (Homo sapiens, UniProt Q86UE8) | cell-free assay | competition with immobilised ligand | 100
PIP5K1C (Homo sapiens, UniProt O60331) | cell-free assay | competition with immobilised ligand | 100
LRRK2 (Homo sapiens, UniProt Q5S007) | cell-free assay | competition with immobilised ligand | 100
CDC42BPG (Homo sapiens, UniProt Q6DT37) | – | competition binding | 92
CDK18 (Homo sapiens, UniProt Q07002) | cell-free assay | competition with immobilised ligand | 94
PIK3CA (Homo sapiens, UniProt P42336, M1043I) | cell-free assay | competition with immobilised ligand | 100
PIK3CA (Homo sapiens, UniProt P42336, I800L) | cell-free assay | competition with immobilised ligand | 90
PIK3C2G (Homo sapiens, UniProt O75747) | cell-free assay | competition with immobilised ligand | 100
FLT3 (Homo sapiens, UniProt P36888, F691L/ITD) | cell-free assay | competition with immobilised ligand | 80
ACVRL1 (Homo sapiens, UniProt P37023) | binding | competition with immobilised ligand | 100
NUAK1 (Homo sapiens, UniProt O60285) | cell-free assay | competition with immobilised ligand | 100
CDKL3 (Homo sapiens, UniProt Q8IVW4) | cell-free assay | competition with immobilised ligand | 100

Block 4
SMILES: Cc1ccc(NC(=O)c2ccnc(C(F)(F)F)c2)cc1-c1cc(OCCO)nc(N2CCOCC2)c1
Method: competitive binding panel
Tested at: 1 µM
Baseline: vehicle
target | remaining binding [%]
MYLK (Homo sapiens, UniProt Q15746) | 100
ZAP70 (Homo sapiens, UniProt P43403) | 100
ERBB4 (Homo sapiens, UniProt Q15303) | 99
MAK (Homo sapiens, UniProt P20794) | 90
PIK3CA (Homo sapiens, UniProt P42336, C420R) | 94

Block 5
Target: DNA polymerase theta, ATPase domain (POLQ, Homo sapiens, UniProt O75417)
UniProt O75417, sequence (whole entry, unmodified, looked up): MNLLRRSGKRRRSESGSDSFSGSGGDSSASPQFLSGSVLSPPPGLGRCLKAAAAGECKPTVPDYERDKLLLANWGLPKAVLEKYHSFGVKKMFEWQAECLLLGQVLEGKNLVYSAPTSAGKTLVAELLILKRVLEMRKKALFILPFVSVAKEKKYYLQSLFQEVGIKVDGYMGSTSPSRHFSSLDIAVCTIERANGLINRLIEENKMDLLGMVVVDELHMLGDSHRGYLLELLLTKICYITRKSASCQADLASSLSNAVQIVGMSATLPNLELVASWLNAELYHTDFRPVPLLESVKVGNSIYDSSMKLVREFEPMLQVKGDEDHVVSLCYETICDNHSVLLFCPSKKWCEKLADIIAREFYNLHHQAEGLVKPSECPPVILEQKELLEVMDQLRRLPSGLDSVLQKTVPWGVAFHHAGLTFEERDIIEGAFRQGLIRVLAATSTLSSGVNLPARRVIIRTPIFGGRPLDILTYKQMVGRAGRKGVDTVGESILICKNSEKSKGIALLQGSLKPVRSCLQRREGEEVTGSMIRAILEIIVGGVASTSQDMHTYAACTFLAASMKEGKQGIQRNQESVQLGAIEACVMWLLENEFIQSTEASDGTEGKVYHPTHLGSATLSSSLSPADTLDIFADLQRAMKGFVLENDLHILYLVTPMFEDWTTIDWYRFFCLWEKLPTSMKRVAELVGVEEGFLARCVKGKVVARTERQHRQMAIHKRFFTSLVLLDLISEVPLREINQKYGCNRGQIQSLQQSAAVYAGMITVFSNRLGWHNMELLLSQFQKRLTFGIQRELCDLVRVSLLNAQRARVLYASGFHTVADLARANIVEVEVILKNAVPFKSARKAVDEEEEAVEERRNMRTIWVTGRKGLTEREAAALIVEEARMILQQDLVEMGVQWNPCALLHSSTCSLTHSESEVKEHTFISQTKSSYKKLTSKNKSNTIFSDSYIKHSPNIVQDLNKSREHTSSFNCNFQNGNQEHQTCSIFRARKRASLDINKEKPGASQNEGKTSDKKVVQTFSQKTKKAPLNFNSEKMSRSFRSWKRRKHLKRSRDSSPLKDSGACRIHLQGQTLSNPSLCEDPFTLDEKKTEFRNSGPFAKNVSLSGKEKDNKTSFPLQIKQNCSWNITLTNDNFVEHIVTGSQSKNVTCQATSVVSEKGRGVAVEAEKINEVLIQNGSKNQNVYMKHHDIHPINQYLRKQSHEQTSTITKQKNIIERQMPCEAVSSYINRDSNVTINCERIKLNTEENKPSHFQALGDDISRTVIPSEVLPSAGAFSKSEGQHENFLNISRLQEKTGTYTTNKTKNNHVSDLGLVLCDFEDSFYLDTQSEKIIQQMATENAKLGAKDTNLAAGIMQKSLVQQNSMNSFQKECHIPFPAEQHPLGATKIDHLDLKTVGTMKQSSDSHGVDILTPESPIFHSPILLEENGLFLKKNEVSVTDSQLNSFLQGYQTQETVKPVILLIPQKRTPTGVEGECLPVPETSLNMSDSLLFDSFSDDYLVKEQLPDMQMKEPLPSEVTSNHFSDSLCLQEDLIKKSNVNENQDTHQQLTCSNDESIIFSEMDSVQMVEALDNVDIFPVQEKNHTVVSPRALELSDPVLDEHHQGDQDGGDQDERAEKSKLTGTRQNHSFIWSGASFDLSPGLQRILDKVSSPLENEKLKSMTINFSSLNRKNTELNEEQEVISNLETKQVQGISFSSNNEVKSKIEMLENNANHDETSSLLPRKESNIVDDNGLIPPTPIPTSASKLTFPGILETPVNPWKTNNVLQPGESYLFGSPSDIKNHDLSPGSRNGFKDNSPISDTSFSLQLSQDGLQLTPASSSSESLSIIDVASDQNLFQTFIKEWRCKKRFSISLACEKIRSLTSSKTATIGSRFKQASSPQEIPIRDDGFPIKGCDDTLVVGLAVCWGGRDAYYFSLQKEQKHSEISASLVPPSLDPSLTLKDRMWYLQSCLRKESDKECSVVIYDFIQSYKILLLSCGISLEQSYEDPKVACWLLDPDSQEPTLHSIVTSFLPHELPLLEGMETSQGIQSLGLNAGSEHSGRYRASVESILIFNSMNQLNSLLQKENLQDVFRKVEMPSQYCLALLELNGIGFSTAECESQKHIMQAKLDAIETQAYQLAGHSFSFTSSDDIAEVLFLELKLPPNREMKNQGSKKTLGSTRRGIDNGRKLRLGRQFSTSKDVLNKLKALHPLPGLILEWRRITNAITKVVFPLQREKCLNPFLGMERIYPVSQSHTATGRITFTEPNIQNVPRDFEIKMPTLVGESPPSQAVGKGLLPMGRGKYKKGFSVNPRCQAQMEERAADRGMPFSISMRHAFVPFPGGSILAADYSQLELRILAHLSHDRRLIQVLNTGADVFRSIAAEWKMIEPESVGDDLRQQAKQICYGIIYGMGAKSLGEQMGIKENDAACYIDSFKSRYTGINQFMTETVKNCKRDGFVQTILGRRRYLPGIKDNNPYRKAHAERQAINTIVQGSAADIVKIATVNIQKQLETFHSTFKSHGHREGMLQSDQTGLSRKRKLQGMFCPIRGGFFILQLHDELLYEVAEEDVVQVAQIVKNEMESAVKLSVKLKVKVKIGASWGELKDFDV
Read-out: enzyme activity
Mode: inhibitor
Tested at: 77 µM
Baseline: untreated
Compound | remaining activity
COc1cc(F)c(C(C)C)cc1-c1ccc(C(F)(F)F)cc1CN1C(=O)O[C@H](c2cc(C(F)(F)F)cc(C(F)(F)F)c2)[C@@H]1C | 104%
N[C@@H]1CONC1=O | 101%
C[C@]12CCC(=O)C=C1CC[C@@H]1[C@@H]2CC[C@@]2(C)[C@H]1CC[C@]2(O)C(=O)CO | 94.8%
C[C@@H](Oc1cc(-n2cnc3ccc(CN4CCN(C)CC4)cc32)sc1C(N)=O)c1ccccc1C(F)(F)F | 98.1%
CCC(=O)OCC(=O)[C@@]1(OC(=O)CC)[C@@H](C)C[C@H]2[C@@H]3CCC4=CC(=O)C=C[C@]4(C)[C@@]3(Cl)[C@@H](O)C[C@@]21C | 99.6% and 101%
